Published values of several laboratories.
A part holds a random share of what one study measured.

Series 1
Target: RING finger protein unkempt homolog, zinc fingers 1-6, GST-SBP tag (UNK, Homo sapiens, UniProt Q9C0B0, residues 30-357)
Technique: RNA Bind-n-Seq
Molecule type: RNA
Sample: in vitro
Tested at: not given
Notes: RNA with constant flanks, human and mouse sites, ends assumed
Reference: input RNA pool
Direction: higher = stronger binding
Construct (chain): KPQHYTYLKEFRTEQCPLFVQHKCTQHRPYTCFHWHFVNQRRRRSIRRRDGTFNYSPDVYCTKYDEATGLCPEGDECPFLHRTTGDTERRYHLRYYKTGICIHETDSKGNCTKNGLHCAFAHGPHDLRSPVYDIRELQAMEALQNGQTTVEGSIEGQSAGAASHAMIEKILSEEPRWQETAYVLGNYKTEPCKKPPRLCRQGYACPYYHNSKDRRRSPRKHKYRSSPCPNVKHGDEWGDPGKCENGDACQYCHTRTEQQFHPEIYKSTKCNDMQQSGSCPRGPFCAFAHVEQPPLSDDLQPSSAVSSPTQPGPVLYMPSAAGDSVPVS
`GGGAGUUCUACAGUCCGACGAUCGUAGGCUCUGUCCGUUCCCAUACCUCCAGCAGGGCCAGUGAGAAUCAGUCUCCCAGCAGUAGCAACUACUUCAGCCCCCGGGAGUCGACUGAUUUCUCCUCUACCUCCCAGGAUGCAUUUCAACAGAGGAUUGAGCAUCA` has a bound/input enrichment of 0.118 ratio.
`GGGAGUUCUACAGUCCGACGAUCCGGACCACAGAGUUCAAACCUUCUGCCCAAAGAAAUGAGCCGUACAAGUUGCUCACACACAAAAUCCCAUGGCACAGUCACUUUGGUGGUUUCCUGGCAACCAUCCGUACAGUUUUGGGACAACAGAGGAUUGAGCAUCA` has a bound/input enrichment of 0.0998 ratio.
The bound/input enrichment of `GGGAGUUCUACAGUCCGACGAUCGGAGCAAAGGGGAUCCGCACGCUGCUCUUUGCUUUGAUGAUGUCCCUUCCUGCGUUGUUUAACAUCGGCCUCCUUCUUUUCCUGGUCAUGUUCAUCUACGCCAUCUUUGGGAUGUCCAAUCAACAGAGGAUUGAGCAUCA` is reported as 0.128 ratio.
`GGGAGUUCUACAGUCCGACGAUCGCCAUCCAGCACUGCCAUUCCCGUGGAGUUGUCCAUCGUGACAUCAAGGAUGAGAACAUCCUGAUAGACCUACGCCGUGGCUGUGCCAAACUCAUUGAUUUUGGUUCUGGUGCCCUGCUUCAACAGAGGAUUGAGCAUCA` has a bound/input enrichment of 0.178 ratio.

Series 2
Target: Transcriptional repressor CTCF (CTCF, Homo sapiens, UniProt P49711, residues 1-727, full length assumed)
Sequence of UniProt P49711 (whole entry, looked up): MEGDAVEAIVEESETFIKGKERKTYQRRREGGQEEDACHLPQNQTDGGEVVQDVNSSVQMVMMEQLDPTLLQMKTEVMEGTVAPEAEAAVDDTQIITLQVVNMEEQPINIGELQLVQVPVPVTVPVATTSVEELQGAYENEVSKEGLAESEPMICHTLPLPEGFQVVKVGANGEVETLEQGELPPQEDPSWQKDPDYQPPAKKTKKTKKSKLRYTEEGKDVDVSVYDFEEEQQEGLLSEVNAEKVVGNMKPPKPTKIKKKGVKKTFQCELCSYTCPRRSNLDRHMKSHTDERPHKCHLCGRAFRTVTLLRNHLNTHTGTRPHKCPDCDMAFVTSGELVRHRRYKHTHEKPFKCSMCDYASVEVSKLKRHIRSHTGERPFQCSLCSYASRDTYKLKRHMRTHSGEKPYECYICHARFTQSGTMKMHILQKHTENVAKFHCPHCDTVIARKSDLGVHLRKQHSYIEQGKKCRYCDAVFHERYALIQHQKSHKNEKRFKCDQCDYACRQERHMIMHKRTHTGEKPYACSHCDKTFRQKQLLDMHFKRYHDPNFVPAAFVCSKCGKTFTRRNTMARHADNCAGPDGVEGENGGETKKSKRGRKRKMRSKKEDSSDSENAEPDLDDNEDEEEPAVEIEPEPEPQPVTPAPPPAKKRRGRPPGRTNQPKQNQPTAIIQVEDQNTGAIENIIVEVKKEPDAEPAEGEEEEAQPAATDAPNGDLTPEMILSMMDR
Technique: protein-binding microarray
Molecule type: double-stranded DNA, one strand shown
Sample: in vitro
Tested at: not given
Notes: k-mer, scored over probes, only values ≥0.25
Direction: higher = stronger binding
`TAGGAAAA` gave an E-score of 0.271.
With `TAATATAA` the E-score was 0.375.
`AACGGATA` gave an E-score of 0.255.
For `AACTTACG`, the E-score was 0.275.
For `ATGATCAA`, the E-score was 0.26.

Series 3
Target: PABPC1L2, full length, GST fusion (mouse, UniProt A0ABA7IW68)
Technique: RNAcompete
Molecule type: RNA
Sample: in vitro
Tested at: 20 nM
Notes: 7-mer, probes averaged, single round
Reference: mean of 7-mers
Direction: higher = stronger binding
Construct (chain): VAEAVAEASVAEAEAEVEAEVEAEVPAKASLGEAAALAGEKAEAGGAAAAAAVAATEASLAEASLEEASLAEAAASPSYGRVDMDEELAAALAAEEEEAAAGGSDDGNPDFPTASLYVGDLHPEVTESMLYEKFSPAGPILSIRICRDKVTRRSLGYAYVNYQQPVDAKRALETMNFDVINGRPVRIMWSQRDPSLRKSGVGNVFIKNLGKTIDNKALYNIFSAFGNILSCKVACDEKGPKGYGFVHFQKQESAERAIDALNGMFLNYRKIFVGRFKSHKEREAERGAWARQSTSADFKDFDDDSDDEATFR
The 7-mer Z-score of `AUGAGAA` is reported as 0.122.
For `CUUCGGU`, the 7-mer Z-score was -0.396.
The 7-mer Z-score of `UAUAGCA` is reported as 0.00798.
The 7-mer Z-score of `UGCCGAA` is reported as -0.0645.

Single results of other studies
For `PhoQ, residues 284 288 289 292 302 303 SMMNNA`, the fold induction was 12.4 (PhoP, residues 12 14 15 18 19 GQALL (Escherichia coli, UniProt P23836); Sort-seq, measured: YFP reporter; E. coli; PhoQ-PhoP variant library, added: 10 µM Mg2+; reference: high Mg2+ state, higher = stronger signaling).
